Assay results of several laboratories.
Compare with care: the assays were run in different laboratories. Several values in a cell are separate wells, animals, samples, runs or records. ± marks the error that the study gave.

The EC50 of `CC1(F)CN(C(=O)Cn2c(=O)c(C(=O)NCc3ccc(Cl)cc3)cc3nc(N4CCCC4=O)cnc32)C1` is reported as 0.169 µM (human cytomegalovirus; viral replication, GFP reporter; MRC-5, AD169-GFP).
`CC(=Nc1ccc(N=Cc2cnc3ccccc3n2)cc1)N(C)C` — result for “worm burden reduction”: 88.9 ± 4.2% (Necator americanus; infected hamsters; oral, 50 mg/kg single; baseline: untreated).
For `COC(=O)[C@H](Cc1c[nH]c2ccccc12)NCc1cc2ccccc2nc1SC`, the growth was 58.6% (Pseudomonas aeruginosa; 128 µg/mL, added: pentamidine 100 µM; baseline: control).
For `N=C(N)c1ccc(OCc2ccc(Br)cc2COc2ccc(C(=N)N)cc2)cc1`, “MIC of compound in combination” read 6.25 mg/L (Escherichia coli; checkerboard; mcr-2 polymyxin-resistant; concentration not given, 20 h, added: rifampicin).
`CC(=O)NC[C@H]1CN(c2ccc(N3CCOCC3)c(F)c2)C(=O)O1` gave an ED50 of 19.7 mg/kg (Streptococcus pneumoniae; -4, penicillin-resistant, mouse systemic infection; intravenous; survival).
`CC(=O)NC[C@H]1CN(c2ccc(N3CCOCC3)c(F)c2)C(=O)O1` gave an MIC of under 2.96 µM (Bifidobacterium longum; HM-847).
Under “MIC in combination”, `N=C(N)c1ccc(OCc2ccccc2COc2ccc(C(=N)N)cc2)cc1` is recorded as 25 mg/L (Escherichia coli; BW25113; concentration not given, lowest-FICI combination, added: rifampicin).
`CN(C)C(=O)CN1CCN(c2cnc3c(cc(C(=O)NCc4ccc(Cl)cc4)c(=O)n3CC(=O)N3CC(C)(F)C3)n2)C1=O` gave an EC50 of 0.831 µM (human cytomegalovirus; viral replication, GFP reporter; MRC-5, AD169-GFP).
The EC50 of `Cc1ccc(-c2nc(C#N)c(N(C)S(=O)(=O)c3ccc(C)cc3)o2)cc1` is reported as 1.07 µM (human cytomegalovirus; viral replication; HFF, AD169).
For `NCC[C@H](O)C(=O)N[C@@H]1C[C@H](N)[C@@H](O[C@H]2O[C@H](CN)[C@@H](O)[C@H](O)[C@H]2O)[C@H](O)[C@H]1O[C@H]1O[C@H](CO)[C@@H](O)[C@H](N)[C@H]1O`, the MIC50 was 3.1 µM (Mycobacterium avium; resazurin microtitre; 104; 4 days, 37 °C).
The EC50 of `CC1(F)CN(C(=O)Cn2c(=O)c(C(=O)NCc3ccc(Cl)cc3)cc3nc(N4CCOC4=O)cnc32)C1` is reported as 0.29 µM (human cytomegalovirus; viral replication, GFP reporter; MRC-5, AD169-GFP).
Under “worm burden reduction”, `CC(=Nc1ccc(N=Cc2ccc[nH]2)cc1)N(C)C` is recorded as 100% (Necator americanus; infected hamsters; oral, 25 mg/kg single dose, 49 days post infection).
`CN[C@H](CC(C)C)C(=O)N[C@H]1C(=O)N[C@@H](CC(N)=O)C(=O)N[C@H]2C(=O)N[C@H]3C(=O)N[C@H](C(=O)N[C@H](C(=O)O)c4cc(O)cc(O)c4-c4cc3ccc4O)[C@H](O)c3ccc(c(Cl)c3)Oc3cc2cc(c3O[C@@H]2O[C@H](CO)[C@@H](O)[C@H](O)[C@H]2O[C@H]2C[C@](C)(N)[C@H](O)[C@H](C)O2)Oc2ccc(cc2Cl)[C@H]1O` has a bacterial load of 5.85 log CFU and 3.52 log CFU and 5.33 log CFU and 4.83 log CFU and 3.82 log CFU (Staphylococcus epidermidis; 9397, female ICR mice, peritonitis, kidney; dose not given).
`COC(=O)[C@@H](NCc1cc2ccccc2nc1OCc1ccccc1)C(C)C` gave a growth of 97.9% (Pseudomonas aeruginosa; 2 µg/mL, added: pentamidine 100 µM; baseline: control).
The parasite number of `CCc1nn(C)c2nc(-c3ccc(C(=O)O)cc3)nc(NCc3ccc(F)cc3)c12` is reported as 37.1% and 35.6% and 45.5% and 39.9% (Cryptosporidium parvum; HCT-8; EC50, 24 h; baseline: DMSO control).
`CC(=Nc1ccc(N=Cc2ccc3[nH]ccc3c2)cc1)N(C)C`: “worm burden reduction” 100% (Necator americanus; infected hamsters; oral, 50 mg/kg single; baseline: untreated).
For `CN[C@H](CC(C)C)C(=O)N[C@H]1C(=O)N[C@@H](CC(N)=O)C(=O)N[C@H]2C(=O)N[C@H]3C(=O)N[C@H](C(=O)N[C@H](C(=O)O)c4cc(O)cc(O)c4-c4cc3ccc4O)[C@H](O)c3ccc(c(Cl)c3)Oc3cc2cc(c3O[C@@H]2O[C@H](CO)[C@@H](O)[C@H](O)[C@H]2O[C@H]2C[C@](C)(N)[C@H](O)[C@H](C)O2)Oc2ccc(cc2Cl)[C@H]1O`, the MIC50 was 4 mg/L (Staphylococcus aureus; MRSA, 10 isolates; serum 50%).
The MIC of `Cc1ccc(CCC(=O)Nc2nnc(S(N)(=O)=O)s2)cc1` is reported as over 784 µM (Bifidobacterium longum; HM-845).
The EC50 of `CC1(F)CN(C(=O)Cn2c(=O)c(C(=O)NCc3ccc(Cl)cc3)cc3nc(N4CCNC4=O)cnc32)C1` is reported as 0.16 µM (human cytomegalovirus; viral cytopathic effect; MRC-5, Davis; 168 h).
With `Cc1nc(NCCCCNc2ccnc3cc(Cl)ccc23)nc(-c2ccccc2[N+](=O)[O-])c1C(=O)OC(C)C` the EC50 was over 4 µM (human cytomegalovirus; viral replication; HEL, AD-169).
`N=C(N)c1ccc(OCc2cc(Br)cc(COc3ccc(C(=N)N)cc3)c2)cc1`: “MIC of compound in combination” 6.25 mg/L (Escherichia coli; checkerboard; mcr-1 polymyxin-resistant; concentration not given, 20 h, added: rifampicin).
Under “worm burden reduction”, `CC(=Nc1ccc(N=Cc2ccc(C=Nc3ccc(N=C(C)N(C)C)cc3)o2)cc1)N(C)C` is recorded as 91.7 ± 5% (Necator americanus; infected hamsters; oral, 50 mg/kg single; baseline: untreated).
The cell protection of `CC(C)n1ncc2c(C(=O)NCC3(C)CNC3)cc(C3CC3)nc21` is reported as 96.8% and 93.7% and 95.2% (Enterovirus D68; cytopathic effect; RD, US/KY/14-18953; 500 nM).
For `COc1cnc2c(cc(C(=O)NCc3ccc(Cl)cc3)c(=O)n2CC(=O)N2CC(C)(F)C2)n1`, the EC50 was 0.377 µM (human cytomegalovirus; viral replication, GFP reporter; MRC-5, AD169-GFP).
The EC90 of `Nc1ccn(C[C@@H](CO)OCP(=O)(O)O)c(=O)n1` is reported as 0.37 µM (Human betaherpesvirus 5; viral replication, virus yield reduction; HFF, AD169).
`CC(=Nc1ccc(N=Cc2c[nH]cn2)cc1)N(C)C`: “worm burden reduction” 100% (Necator americanus; infected hamsters; oral, 50 mg/kg single; baseline: untreated).
The mean lifespan of `Cc1ccc(NC(=O)N2Cc3[nH]cnc3C[C@H]2c2nc(-c3ccc4c(c3)OCO4)no2)cc1` is reported as 20.7 days (Caenorhabditis elegans; N2; 1.56 µM).
With `COc1cc2c(NC3CCN(C4CCCCC4)CC3)nc(N3CCCN(C(C)C)CC3)nc2cc1OCCCN1CCCCC1` the viability was 193% (OCI-Ly1; 0.1 µM, 120 h).
The inhibition of `Cc1cc(OC(C)C)ccc1C(=O)C(C)(C)NC(=O)c1sccc1C` is reported as 34 ± 32.8% (Botrytis cinerea; germ tube elongation; B05.10; 0.01 µg/mL).
For `CC(=Nc1ccc(N=Cc2ccc3[nH]cnc3c2)cc1)N(C)C`, “worm burden reduction” read > 70% and 70.3% (Necator americanus; infected hamsters; oral, 12.5 mg/kg single dose, 49 days post infection).
With `N#Cc1nc(-c2ccccc2)oc1N1CCCC1CO` (centres unmarked) the EC50 was under 0.05 µM (human cytomegalovirus; viral replication; HFF, AD169).
Under “NAADP Ca2+ release antagonism”, `FC(F)(F)c1cccc(N2CCN(Cn3nc(COc4ccccc4)n(-c4ccccc4)c3=S)CC2)c1` is recorded as “toxic” (Lytechinus pictus; fluo-3; egg homogenate; 6 to 125 µM, added: NAADP 30 to 50 nM).
`C(=N\Nc1ccccc1)/c1ccc(-c2ccc(/C=N/Nc3ccccc3)cc2)cc1` gave a selectivity ratio of under 0.6 (Pichia kudriavzevii; ATCC 6258; baseline: CC50 over MIC).
`Nc1nc(-c2ccccc2)nc2[nH]nc(Nc3ccc(C(F)(F)F)cc3)c12` has a clinical score of 0.22 (coxsackievirus B3; 31-1-93, NMRI mice, CVB3 chronic myocarditis; oral, 100 mg/kg twice daily, day 8, dosed days 1 to 7, score scale 0 to 7; direction not given).
The FICI of `N=C(N)c1ccc(OCCCCCOc2ccc(C(=N)N)cc2)cc1` is reported as at most 0.281 (Escherichia coli; checkerboard; BW25113; synergy at FICI ≤0.5, unit not given, added: novobiocin; lower = stronger synergy).
With `COC(=O)[C@H](Cc1c[nH]c2ccccc12)NCc1cc2ccccc2nc1OC` the growth was 90.7% (Pseudomonas aeruginosa; 32 µg/mL, without pentamidine; baseline: control).
`CC(=Nc1ccc(N=Cc2cccnc2)cc1)N(C)C`: “worm burden reduction” 93.3 ± 6.7% (Necator americanus; infected hamsters; oral, 50 mg/kg single; baseline: untreated).
For `CCOC(=O)c1c(C)nc(NCCNc2ccnc3cc(Cl)ccc23)nc1-c1ccccc1`, the EC50 was over 4 µM (human cytomegalovirus; viral replication; HEL, AD-169).
For `Nc1ccn([C@@H]2O[C@H](CO)[C@@H](O)C2(F)F)c(=O)n1`, the viability was 3.14% (OCI-Ly1; 0.5 µM, 120 h).
With `Cc1nc(NCCCNc2ccnc3cc(Cl)ccc23)nc(-c2cccc([N+](=O)[O-])c2)c1C(=O)OC(C)C` the EC50 was over 4 µM (human cytomegalovirus; viral replication; HEL, AD-169).
The growth of `COC(=O)[C@@H](CCSC)NCc1cc2ccccc2nc1SC` is reported as 101% (Pseudomonas aeruginosa; 4 µg/mL, added: pentamidine 50 µM; baseline: control).

For quick reference, copied from above:
`CC(=Nc1ccc(N=Cc2cnc3ccccc3n2)cc1)N(C)C` — result for “worm burden reduction”: 88.9 ± 4.2% (Necator americanus; infected hamsters; oral, 50 mg/kg single; baseline: untreated).
For `COC(=O)[C@H](Cc1c[nH]c2ccccc12)NCc1cc2ccccc2nc1SC`, the growth was 58.6% (Pseudomonas aeruginosa; 128 µg/mL, added: pentamidine 100 µM; baseline: control).
For `N=C(N)c1ccc(OCc2ccc(Br)cc2COc2ccc(C(=N)N)cc2)cc1`, “MIC of compound in combination” read 6.25 mg/L (Escherichia coli; checkerboard; mcr-2 polymyxin-resistant; concentration not given, 20 h, added: rifampicin).
`CC(=O)NC[C@H]1CN(c2ccc(N3CCOCC3)c(F)c2)C(=O)O1` gave an ED50 of 19.7 mg/kg (Streptococcus pneumoniae; -4, penicillin-resistant, mouse systemic infection; intravenous; survival).
`CC(=O)NC[C@H]1CN(c2ccc(N3CCOCC3)c(F)c2)C(=O)O1` gave an MIC of under 2.96 µM (Bifidobacterium longum; HM-847).
Under “MIC in combination”, `N=C(N)c1ccc(OCc2ccccc2COc2ccc(C(=N)N)cc2)cc1` is recorded as 25 mg/L (Escherichia coli; BW25113; concentration not given, lowest-FICI combination, added: rifampicin).
`CN(C)C(=O)CN1CCN(c2cnc3c(cc(C(=O)NCc4ccc(Cl)cc4)c(=O)n3CC(=O)N3CC(C)(F)C3)n2)C1=O` gave an EC50 of 0.831 µM (human cytomegalovirus; viral replication, GFP reporter; MRC-5, AD169-GFP).
